Measurements collected from several papers.
Every numbered part comes from another study and shows a few of its results, in no order. Substitutions count along the parent as printed.

Study 1
Target: Probable WRKY transcription factor 11, DNA-binding domain (WRKY11, Arabidopsis thaliana, UniProt Q9SV15, residues 228-325)
Method: DNA-protein interaction ELISA
Form: double-stranded DNA, one strand shown
Sample: in vitro, bacterial lysate
Concentration: not given
Setting: whole dsDNA probe, crude lysate protein
Baseline: highest signal in screen
Direction: higher = stronger binding
Construct (chain): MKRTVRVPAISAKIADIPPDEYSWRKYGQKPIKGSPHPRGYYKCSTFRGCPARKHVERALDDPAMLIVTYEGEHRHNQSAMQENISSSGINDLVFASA
| Strand | relative absorbance |
| --- | --- |
| AAAAAATTAGTCCTGATTCAATCTTCAAAA | 19.6 % of maximum |
| AAAAAATTGGCACACATGATCTCGGGAAAA | 13.8 % of maximum |
| AAAAAAGCTCCCGTCTCTTAGTTCTAAAAA | 17.6 % of maximum |
| AAAAAATTCTTACTTTTGTCTTTACTAAAA | 19.6 % of maximum |
| AAAAAATATATTTTCAGCTTTAATCTAAAA | 17.6 % of maximum |
| AAAAAAAGGTTTGGGCTTCACGTTATAAAA | 18.4 % of maximum |
| AAAAAAGAAATACCAGAAACTATCATAAAA | 15.8 % of maximum |
| AAAAAAAAGAGCCTGGGGGTTCGCATAAAA | 17.6 % of maximum |
| AAAAAATGGATCTTTACTTTAGGCCAAAAA | 17.9 % of maximum |
| AAAAAATGAATCAATTTTTGGGCTTTAAAA | 12.7 % of maximum |

Study 2
Target: ABI1, truncated, D143A, DHFR fusion (Arabidopsis thaliana)
Method: DHFR PCA, deep sequencing
Sample: yeast
Setting: methotrexate growth selection, single substitutions
Together with: (+)-ABA 0.11 µM
Baseline: wild-type fitted maximum
Direction: higher = stronger binding
Starting sequence: PYL1, truncated, DHFR fusion (Arabidopsis thaliana); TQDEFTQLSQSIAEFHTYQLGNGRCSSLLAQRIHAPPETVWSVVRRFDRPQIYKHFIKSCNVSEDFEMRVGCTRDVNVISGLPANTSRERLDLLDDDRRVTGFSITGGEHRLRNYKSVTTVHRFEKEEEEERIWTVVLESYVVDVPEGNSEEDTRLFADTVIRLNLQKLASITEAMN; partner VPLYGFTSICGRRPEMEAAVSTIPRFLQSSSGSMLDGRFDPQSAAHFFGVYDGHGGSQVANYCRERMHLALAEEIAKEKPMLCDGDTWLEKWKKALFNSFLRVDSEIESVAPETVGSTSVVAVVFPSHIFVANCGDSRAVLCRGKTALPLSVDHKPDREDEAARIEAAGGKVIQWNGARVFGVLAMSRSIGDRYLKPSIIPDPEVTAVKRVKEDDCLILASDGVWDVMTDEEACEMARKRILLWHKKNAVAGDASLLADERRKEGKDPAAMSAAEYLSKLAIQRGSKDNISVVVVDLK
| Variant | relative binding score |
| --- | --- |
| S26K | 0.0802% |
| L164K | 3.54% |
| C60P | -2.17% |
| F157A | 4.38% |
| V44A | 0.587% |
| E151S | 28% |
| R98L | 12.3% |
| M68C | 11.6% |

Study 3
Target: CCND3, cyclin fold, Cln2 fusion (human)
Method: yeast growth competition, sequencing
Sample: yeast
Setting: weak parent motif
Baseline: not given
Direction: higher = stronger binding
Starting sequence: PKN2 docking peptide (human); VSAVQKLDFSDTM; partner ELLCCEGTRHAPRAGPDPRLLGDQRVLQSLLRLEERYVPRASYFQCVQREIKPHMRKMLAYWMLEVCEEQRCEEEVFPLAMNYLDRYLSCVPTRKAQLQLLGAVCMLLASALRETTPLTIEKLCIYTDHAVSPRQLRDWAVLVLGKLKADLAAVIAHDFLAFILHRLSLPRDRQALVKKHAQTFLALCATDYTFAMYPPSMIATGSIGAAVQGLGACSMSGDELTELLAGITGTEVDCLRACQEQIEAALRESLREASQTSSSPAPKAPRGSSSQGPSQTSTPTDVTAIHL
| Variant | normalised enrichment score |
| --- | --- |
| VSAVQKLYFSDTM [D8Y] | 0.126 |
| VSAGQKLDFSDTM [V4G] | -0.0446 |
| VSAVQKLDFVDTM [S10V] | 0.154 |
| VSAVQKLQFSDTM [D8Q] | 0.148 |
| VSALQKLDFSDTM [V4L] | 0.121 |
| VSAVQKIDFSDTM [L7I] | 0.0328 |
| VSAVQKLDFSVTM [D11V] | 0.128 |
| VSAVQKLDFSDTD [M13D] | 0.123 |
| VSAVQKLDFLDTM [S10L] | 0.114 |
| RSAVQKLDFSDTM [V1R] | 0.125 |
| VPAVQKLDFSDTM [S2P] | 0.0793 |
| VSAVQKLDFPDTM [S10P] | 0.163 |
| VSAVQKLMFSDTM [D8M] | 0.206 |
| VSAVQKLDFMDTM [S10M] | 0.124 |
| WSAVQKLDFSDTM [V1W] | 0.125 |
| VSAVQKLDSSDTM [F9S] | 0.143 |

Study 4
Target: Histone acetyltransferase KAT6A, both winged helices, GST fusion (KAT6A, Homo sapiens, UniProt Q92794, residues 1-181)
Method: protein binding microarray
Form: double-stranded DNA, one strand shown
Sample: in vitro
Concentration: not given
Setting: 8-mer, flanks averaged, mean of 2 arrays, mostly near background
Baseline: not given
Direction: higher = stronger binding
Construct (chain): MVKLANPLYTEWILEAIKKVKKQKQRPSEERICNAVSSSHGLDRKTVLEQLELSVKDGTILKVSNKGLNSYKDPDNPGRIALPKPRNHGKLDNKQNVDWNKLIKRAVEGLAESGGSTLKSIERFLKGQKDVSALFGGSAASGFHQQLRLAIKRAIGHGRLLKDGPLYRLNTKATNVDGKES
| Strand | E-score |
| --- | --- |
| ACTAAAAT | -0.0437 |
| AATTGGCG | 0.0389 |
| AGTTGAAA | -0.105 |
| ATGCAAAG | -0.0706 |
| AGTCGCGG | 0.257 |
| AATCGAGA | 0.0254 |
| AAGCCGAT | 0.15 |
| ATTGATAC | 0.121 |
| AGGTCCAT | -0.191 |
| ATTAGTGA | -0.0714 |
| ATAACGAT | -0.0399 |
| AGCTGCAG | -0.0702 |
| GGAAGAAC | 0.0214 |
| CTATACAA | -0.0334 |
| GGCGGCAC | 0.231 |

Study 5
Target: Prothrombin, mature alpha-thrombin (F2, Homo sapiens, UniProt P00734)
Method: aptamer microarray, sandwich
Form: DNA with 2'F-ANA
Sample: in vitro
Concentration: 200 nM
Setting: whole 15-mer aptamer, many near background
Together with: Cy3 exosite-II aptamer, 400 nM
Direction: higher = stronger binding
Strand: GGTTGGTGTGGTTGG
| Modification | mean fluorescence intensity [a.u.] |
| --- | --- |
| 2'F-ANA at 1 2 3 4 6 8 9 12 13 14 | 61.6 |
| 2'F-ANA at 4 7 8 9 11 12 15 | 519 |
| 2'F-ANA at 2 7 8 10 13 14 15 | 77.3 |
| 2'F-ANA at 2 4 5 7 10 15 | 48.9 |
| 2'F-ANA at 2 3 5 8 9 10 11 13 | 87 |
| 2'F-ANA at 1 2 3 4 5 6 9 10 14 | 47.8 |
| 2'F-ANA at 1 4 5 6 9 10 11 15 | 51.5 |
| 2'F-ANA at 1 2 3 4 11 14 15 | 63.4 |
| 2'F-ANA at 2 8 9 14 15 | 148 |
| 2'F-ANA at 4 7 11 12 13 15 | 356 |
| 2'F-ANA at 2 3 4 5 6 7 9 15 | 119 |
| 2'F-ANA at 3 4 5 7 10 13 | 50.6 |
| 2'F-ANA at 2 3 4 5 6 7 8 10 13 15 | 164 |
| 2'F-ANA at 2 6 7 8 12 14 15 | 206 |
| 2'F-ANA at 1 2 3 5 7 8 10 11 12 | 48 |
| 2'F-ANA at 2 4 8 10 12 14 15 | 72.8 |
| 2'F-ANA at 1 2 5 13 15 | 52.7 |

Study 6
Target: Interferon regulatory factor 7, full length, phosphomimetic (IRF7, Homo sapiens, UniProt Q92985, residues 1-503, S101K/S471D/S472D/S475D/S476D/S477D/S483D/S484D/S487D)
Chain of UniProt Q92985 (whole entry, unmodified, looked up): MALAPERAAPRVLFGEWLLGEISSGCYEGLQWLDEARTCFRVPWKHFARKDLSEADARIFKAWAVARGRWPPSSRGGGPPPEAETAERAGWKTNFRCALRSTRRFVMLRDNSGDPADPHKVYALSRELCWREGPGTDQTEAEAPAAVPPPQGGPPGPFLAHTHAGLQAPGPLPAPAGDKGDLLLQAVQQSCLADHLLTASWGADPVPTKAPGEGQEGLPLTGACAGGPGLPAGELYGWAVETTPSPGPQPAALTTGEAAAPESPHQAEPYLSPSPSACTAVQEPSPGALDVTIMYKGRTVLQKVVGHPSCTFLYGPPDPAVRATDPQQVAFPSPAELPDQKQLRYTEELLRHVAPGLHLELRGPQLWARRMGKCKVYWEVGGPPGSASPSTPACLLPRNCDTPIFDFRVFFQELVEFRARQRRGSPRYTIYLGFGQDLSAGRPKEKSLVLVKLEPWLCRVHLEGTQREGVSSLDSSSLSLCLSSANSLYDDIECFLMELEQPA
Method: protein-binding microarray
Form: double-stranded DNA, one strand shown
Sample: in vitro
Concentration: 250 nM
Setting: 60-bp whole probe
Together with: salmon DNA 0.4 mg/ml
Baseline: random background probes
Direction: higher = stronger binding
Constant ends, left off below: GCCTAGCAC … GTCTTGATTCGCTTGACGCTGCTG
| Strand | log fluorescence |
| --- | --- |
| TCATTCCTCTTTCTCTGACTGTGCTAG | 2.84 z-score |
| TTAAATATCAGTCTCGATTAGTGCTAG | 1.73 z-score |
| TATGTTCCCTATTTAAGGCTGTGCTAG | 4.27 z-score |
| GACGGTCTCCTCCTCCTGACGTGCTAG | -0.332 z-score |
| TCACATGTAAATAATCAGACTGTGCTA | -0.0685 z-score |
| GACGATTTCGTGACTGGAGACGTGCTA | -0.0433 z-score |
| GACGATTTCGGGTATCGAGAAGTGCTA | 0.858 z-score |
| TTAGATCTCAGTATCGAATAGTGCTAG | 0.191 z-score |
| GTTCTTATCCTTCCCCTCTAGTGCTAG | 1.53 z-score |
| GACGGTCTCCTTATCCGGACGTGCTAG | 0.451 z-score |
| GACGAACTCAGTTTCGAGACGTGCTAG | 4.28 z-score |
| GACGGTATCCGTATCGGGACGTGCTAG | -0.0417 z-score |
| GACGGGTTCCTTATCCTGACGTGCTAG | 0.759 z-score |
| TCATTTTTGCTTTCTTTACTGTGCTAG | 1.81 z-score |
| ATGTAATTCCTGCCTGAGCTCGTGCTA | 0.0851 z-score |

Study 7
Target: RNA binding protein fox-1 homolog 2, RRM domain, GST-SBP tag (RBFOX2, Homo sapiens, UniProt O43251-10, residues 100-194)
Method: RNA Bind-n-Seq
Form: RNA
Sample: in vitro
Concentration: 365 nM
Setting: natural RNA segment, single round, ends assumed
Baseline: no-protein control
Direction: higher = stronger binding
Constant ends, left off below: GGGAGUUCUACAGUCCGACGAUC … UGGAAUUCUCGGGUGCCAA
Construct (chain): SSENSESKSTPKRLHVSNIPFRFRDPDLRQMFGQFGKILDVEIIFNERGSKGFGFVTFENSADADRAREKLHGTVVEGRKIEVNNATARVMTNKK
| Strand | RBNS enrichment (R) |
| --- | --- |
| UCCAAAGCCACAUCACAGUCGGUGGUGAUGCAUCUGGGGGCUUACUCUGAGGAAACCUAGGAAAUCUCGGUGUACUAGGAAGUGAAUCCUGCAGGACAGCUGCACUCAGG | 0.357 |
| CUGAAAUAGGUGAUCAGGUUAGUGGUGUCUGUCAGCUGUCUAAGAGGUUGGAAAAUGAACUACUCAAGAUAGUCACGAAAAUACUGAAAGUUUGAUUUUUCUUUCCAUAU | 0.746 |
| CCAGCCCUCAGCUGUCAUCCUUCCUGCCCUGCCCCUCUGUUUUAUCCUGGUGGGUCUUGCCUGUGACAGCAGACCCUCCAAACCUAAGAGCCACCAGCACUUCAGAGCCA | 0.482 |
| UGUACCUCUGACUUUCUUGGCUCAGGUUCAGUCAGUUGCUCUUCCUCCUUGGCAAAGCCAUCUAGGUUCCAGGUGGGUGUCAUGCAUACCACAUGUGCACAGAGCCAGCU | 0.133 |
| UUGAUGGUGAGAGCAGCGGGAGGUUUGAGGUGUACUCAUUGCAGUCCACUUUGGUCUGUAAGUAGGAUGCUUACGAGAAAUCAGUGAAGGUAAGCAGGGCUGCCACUGUG | 0.586 |
| CCCUACCUCCGCCCCACCCCAUCAUCUGUGGACACUGGAGUCUGGAAUAAAUGCUGUUUGUCACAUCAACACCAUCCUGUGGCCAGAGCUUCCUCUGGGAGUAGGGAGGG | 0.348 |
| GUCAUCAGAAACCCCGUACUCAUGGCCCUGCUCAGGGCUGCUGUUGACUCUGCUUGAGAGGUGGCACUUGUCGAACAGCCUGGCACCUGGUAUCCAGGCUCCAACGACCU | 0.342 |
| CUCCCUGGUGUGGUCAGCCUCUCUCACACAAGGAGGAACUUGGGUGAAGGCUGAGUGUGAGGCACCUGAAGUUUCCCUGCGGAGUCGAUAAAUUAGCAGAACCACAUCCC | 1.01 |
| AGUGAGUGAAGUUGAAAUAAAAUCUUUAAAAUUUACUAUAUUGCCAGUGGUUUCACAACAGUUCUCUUGUAUUUAUUUAUCAAUUAAAUCAAAUAAAAAUGAUUAUGUCA | 0.841 |
| CCCAGGUAGGGGUGGGGCUGCCCUUCAGCGCAGCAGUGUGGGCUGCAUUUCUGUUCACCAGCCUCCCAAACACGGCCCAGCCCCAGCCAGCCCCAGCCAGCCCCAGCGGC | 0.302 |
| GGAGUCGGAGCCCUGGGUCCGAAUGGACCCGCCUGCGGUCUGCAUCAGCCUCUGGGAAACCACAGCAGUGAUGCCAGCUGGGCACGUCAGGACCUCCCCACACACCCACA | 0.725 |
| GAUAAAACUGAUUCUGACCCACACAGUUUGAUUCUAGAGCCUGUUCUGACUACUGUGCUAAGGUGUGUAUAAUGAACAUGGUAAUUCUAACCAGCUUUUUAAAAAUAUGU | 0.576 |

For quick reference, copied from above (study 5):
| Modification | mean fluorescence intensity [a.u.] |
| --- | --- |
| 2'F-ANA at 2 3 5 8 9 10 11 13 | 87 |
| 2'F-ANA at 1 2 5 13 15 | 52.7 |
| 2'F-ANA at 4 7 11 12 13 15 | 356 |
| 2'F-ANA at 2 4 8 10 12 14 15 | 72.8 |
| 2'F-ANA at 1 2 3 5 7 8 10 11 12 | 48 |
